Experimental data collected from several papers.
Numbered parts are unrelated; each lists some results of a single study.

Study 1
Target: RNA binding protein fox-1 homolog 2, RRM domain, GST-SBP tag (RBFOX2, Homo sapiens, UniProt O43251-10, residues 100-194)
Technique: RNA Bind-n-Seq
Form: RNA
Sample: in vitro
Concentration: 365 nM
Notes: natural RNA segment, single round, ends assumed
Relative to: no-protein control
Direction: higher = stronger binding
All sequences stand within: GGGAGUUCUACAGUCCGACGAUC … UGGAAUUCUCGGGUGCCAA
Construct (chain): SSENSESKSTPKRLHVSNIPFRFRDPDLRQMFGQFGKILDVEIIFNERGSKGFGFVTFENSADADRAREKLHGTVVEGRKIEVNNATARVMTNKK
Under “RBNS enrichment (R)”, `UUUUGGCAACUUGUAAAUAAUGUGUAUACCAAGUUUUUAUGAUUAAGGAAUCAAAUUUAUUGAAUUUUAUUAUUGAAAGUUGAAAUAAGAUGUAUGAACAAAAAAAAAUC` is recorded as 0.844.
Under “RBNS enrichment (R)”, `CUACACAUUUUGCCUUUGGGGAUCUGGUUGGGGUUUUGGGUUUUUUGUUGUUGUUGUUUAUUUGUUAUUUUAAAGGUAAAUUGCACUUUUAAAAAAAUAAUUGGUUGACU` is recorded as 0.897.
`GAAGCCUCUGGGAACUCCUCCUGUGGCCACCACCAAAGGAUGAGGAAUCUGAGUUGCCAACUUCAGGACGACACCUGGCUUGCCACCCACAGUGCACCACAGGCCAACCU` — result for “RBNS enrichment (R)”: 0.222.
For `UCUCUUGAAGUUCUAGGAAGAGGCAAACUACAAACUACUAGGAUUCUGAUUUCAGAUGUAGUCAUUCCAGAACCUUCUCUUUAUGAGUUCACCUGCUAGUACAAUCUCCA`, “RBNS enrichment (R)” read 0.423.
For `GUUAUUAGAACGAGUCUUUCUUAUAAACUAACAGAGCAGGUAUAUGCCUGUUAGACCUUAGCUGUGGGGUUCCUUUACUAUUGGGUGAAUCAUUAGGUAUAAAAAAUAAU`, “RBNS enrichment (R)” read 0.722.

Study 2
Target: Centromere-binding protein 1, full length, His-tagged (CBF1, Saccharomyces cerevisiae, UniProt P17106, residues 1-351)
Chain of UniProt P17106 (whole entry, looked up): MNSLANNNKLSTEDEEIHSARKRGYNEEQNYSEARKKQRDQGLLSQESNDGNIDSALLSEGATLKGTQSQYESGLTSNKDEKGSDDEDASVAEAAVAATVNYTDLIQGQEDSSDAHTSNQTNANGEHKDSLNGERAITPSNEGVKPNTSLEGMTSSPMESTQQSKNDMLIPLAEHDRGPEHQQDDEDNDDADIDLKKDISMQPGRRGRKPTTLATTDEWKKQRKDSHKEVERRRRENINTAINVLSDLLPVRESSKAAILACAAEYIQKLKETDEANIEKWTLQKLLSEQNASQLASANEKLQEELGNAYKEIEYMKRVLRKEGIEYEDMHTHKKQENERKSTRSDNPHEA
Technique: competition protein-binding microarray
Form: double-stranded DNA, one strand shown
Sample: in vitro
Concentration: 2 µM
Notes: whole 60-bp probe, lowest competitor level
With: Pho4 competitor, 0.05 µM
Direction: higher = stronger binding
`TTAATATTTTCGGTGCTCGTGGTGAGGCAGAAGCTGGTCTTGATTCGCTTGACGCTGCTG` gave a fluorescence intensity of 87 a.u.
With `CTTTCCCGATCTTGTCACGTCACTTTAGCACATTTGGTCTTGATTCGCTTGACGCTGCTG` the fluorescence intensity was 128 a.u.
With `GAAAAGTGGTATGCACTCGTGGGTATTTTTACAACTGTCTTGATTCGCTTGACGCTGCTG` the fluorescence intensity was 102 a.u.
For `CTAACGAAGGTTTGACAGGTGGGTGACAAGCCAAGTGTCTTGATTCGCTTGACGCTGCTG`, the fluorescence intensity was 70.3 a.u.

Study 3
Target: Histone acetyltransferase KAT6A, both winged helices, GST fusion (KAT6A, Homo sapiens, UniProt Q92794, residues 1-181)
Technique: protein binding microarray
Form: double-stranded DNA, one strand shown
Sample: in vitro
Concentration: not given
Notes: 8-mer, flanks averaged, mean of 2 arrays, mostly near background
Relative to: not given
Direction: higher = stronger binding
Target sequence (chain): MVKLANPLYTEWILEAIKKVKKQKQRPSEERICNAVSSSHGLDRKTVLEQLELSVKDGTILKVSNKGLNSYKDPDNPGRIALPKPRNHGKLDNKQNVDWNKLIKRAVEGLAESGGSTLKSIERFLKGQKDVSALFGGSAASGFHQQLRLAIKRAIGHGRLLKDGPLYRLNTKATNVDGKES
The E-score of `CTGATCGA` is reported as -0.114.
`ATTGTTTC` has an E-score of 0.0886.
`CAGCGCCA` has an E-score of 0.13.
The E-score of `ATTTTCCG` is reported as 0.204.
For `ACGTGTTA`, the E-score was 0.0261.

Single results of other studies
The fold induction of `PhoQ, residues 284 288 289 292 302 303 SSLVEF` is reported as 9.6 (PhoP, residues 12 14 15 18 19 NQFFI (Escherichia coli, UniProt P23836); Sort-seq, measured: YFP reporter; E. coli; PhoQ-PhoP variant library, with: 10 µM Mg2+; relative to: high Mg2+ state, higher = stronger signaling).
